Assay results gathered from unrelated publications.
Each line is one published result; not all experiments were run side by side.
Response regulator PhoP: Response regulator PhoP (Mycobacterium tuberculosis, UniProt P71814)
Rv1885c: Secreted chorismate mutase (Rv1885c, Mycobacterium tuberculosis, UniProt P9WIB9)
UniProt P9WIB9, sequence (whole entry, looked up): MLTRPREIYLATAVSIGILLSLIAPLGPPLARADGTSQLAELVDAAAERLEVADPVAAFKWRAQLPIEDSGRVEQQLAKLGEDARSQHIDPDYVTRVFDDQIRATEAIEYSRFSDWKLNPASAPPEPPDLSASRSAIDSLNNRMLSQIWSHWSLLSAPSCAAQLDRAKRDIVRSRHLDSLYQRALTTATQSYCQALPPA
lasR: Transcriptional activator protein LasR (lasR, Pseudomonas aeruginosa, UniProt P25084)
UniProt P25084, sequence (whole entry, looked up): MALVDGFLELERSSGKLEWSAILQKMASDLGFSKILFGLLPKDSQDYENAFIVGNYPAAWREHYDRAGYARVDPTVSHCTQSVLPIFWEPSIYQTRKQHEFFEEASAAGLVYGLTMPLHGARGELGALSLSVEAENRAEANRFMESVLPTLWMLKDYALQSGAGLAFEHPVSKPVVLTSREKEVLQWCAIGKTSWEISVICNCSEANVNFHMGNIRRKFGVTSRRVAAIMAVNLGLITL
1-deoxy-D-xylulose-5-phosphate synthase: 1-deoxy-D-xylulose-5-phosphate synthase (Mycobacterium tuberculosis, UniProt P9WNS3)
UniProt P9WNS3, sequence (whole entry, looked up): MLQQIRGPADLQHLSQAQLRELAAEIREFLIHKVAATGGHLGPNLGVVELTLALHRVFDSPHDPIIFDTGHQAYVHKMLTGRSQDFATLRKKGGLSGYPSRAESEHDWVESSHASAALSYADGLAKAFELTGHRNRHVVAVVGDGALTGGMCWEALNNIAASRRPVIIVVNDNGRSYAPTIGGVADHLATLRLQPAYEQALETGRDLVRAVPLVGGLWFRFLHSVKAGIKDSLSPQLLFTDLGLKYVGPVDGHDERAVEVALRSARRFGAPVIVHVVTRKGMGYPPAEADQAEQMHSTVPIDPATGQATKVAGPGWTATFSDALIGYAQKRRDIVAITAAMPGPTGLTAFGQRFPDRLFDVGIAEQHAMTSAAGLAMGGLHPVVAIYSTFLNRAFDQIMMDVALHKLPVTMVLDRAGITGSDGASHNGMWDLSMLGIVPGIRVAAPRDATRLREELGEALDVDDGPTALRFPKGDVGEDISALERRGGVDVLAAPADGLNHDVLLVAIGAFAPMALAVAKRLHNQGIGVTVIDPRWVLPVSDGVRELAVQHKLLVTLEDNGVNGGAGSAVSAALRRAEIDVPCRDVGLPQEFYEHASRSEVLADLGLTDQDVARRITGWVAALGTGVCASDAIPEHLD
Matrix protein 2: Matrix protein 2 (Influenza A virus, UniProt P0DOF5)
UniProt P0DOF5, sequence (whole entry, looked up): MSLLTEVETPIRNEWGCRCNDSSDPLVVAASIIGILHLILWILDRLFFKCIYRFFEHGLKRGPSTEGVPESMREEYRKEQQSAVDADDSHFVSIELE
UniProt P68400, sequence (whole entry, looked up): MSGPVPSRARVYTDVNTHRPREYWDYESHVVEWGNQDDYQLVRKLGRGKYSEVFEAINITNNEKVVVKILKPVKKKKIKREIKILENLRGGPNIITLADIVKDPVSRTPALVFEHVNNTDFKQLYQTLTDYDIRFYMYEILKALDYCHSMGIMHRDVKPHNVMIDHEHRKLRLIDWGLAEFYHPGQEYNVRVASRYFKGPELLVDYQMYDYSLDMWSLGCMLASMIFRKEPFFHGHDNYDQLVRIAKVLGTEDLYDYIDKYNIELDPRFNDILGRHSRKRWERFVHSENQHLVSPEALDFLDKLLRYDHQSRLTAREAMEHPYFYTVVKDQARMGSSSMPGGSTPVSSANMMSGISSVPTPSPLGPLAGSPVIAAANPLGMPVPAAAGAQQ
UniProt O60656, sequence (whole entry, looked up): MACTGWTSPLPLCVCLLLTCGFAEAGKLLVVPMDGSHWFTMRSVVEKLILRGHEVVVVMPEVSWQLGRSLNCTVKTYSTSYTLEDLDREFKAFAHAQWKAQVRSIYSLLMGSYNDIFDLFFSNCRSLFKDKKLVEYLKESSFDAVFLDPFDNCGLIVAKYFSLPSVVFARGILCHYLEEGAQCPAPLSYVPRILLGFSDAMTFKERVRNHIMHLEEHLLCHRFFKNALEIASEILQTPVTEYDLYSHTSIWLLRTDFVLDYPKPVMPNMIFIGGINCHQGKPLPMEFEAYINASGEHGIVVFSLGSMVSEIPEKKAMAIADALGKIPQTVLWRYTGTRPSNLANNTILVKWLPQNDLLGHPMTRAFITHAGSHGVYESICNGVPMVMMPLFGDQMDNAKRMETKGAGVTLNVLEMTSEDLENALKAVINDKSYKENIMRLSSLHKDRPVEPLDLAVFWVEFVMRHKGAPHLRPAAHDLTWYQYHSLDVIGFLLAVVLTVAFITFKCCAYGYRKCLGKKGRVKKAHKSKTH
UniProt P9WGM7, sequence (whole entry, looked up): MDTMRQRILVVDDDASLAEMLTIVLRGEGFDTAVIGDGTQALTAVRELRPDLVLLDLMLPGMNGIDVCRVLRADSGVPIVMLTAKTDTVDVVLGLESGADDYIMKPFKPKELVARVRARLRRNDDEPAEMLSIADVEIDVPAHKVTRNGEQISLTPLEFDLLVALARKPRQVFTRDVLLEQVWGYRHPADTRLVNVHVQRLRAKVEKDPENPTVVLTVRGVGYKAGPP

O=S(=O)(O)c1ccc(-c2cnc(-c3ccc(-c4ncc(-c5ccc(S(=O)(=O)O)cc5)o4)cc3)o2)cc1  inhibition (Response regulator PhoP; DNA binding; 100 µM): > 50%
Cc1ccc(S(=O)(=O)n2c(CN3C(=O)C(=O)c4ccccc43)cc3ccccc32)cc1  inhibition (Rv1885c; enzyme activity, inhibitor; 30 µM): 67.7%
CCCc1cn(-c2ccc(C(=O)N[C@H]3CCOC3=O)cc2)nn1  inhibition (lasR; reporter gene, antagonist; 100 µM, added: OdDHL 10 nM): 46%
CCCCCc1cc(O)c2c(c1)OC(C)(C)C1CCC(C)=CC21 (single isomer, unassigned; (-))  inhibition (UDP-glucuronosyltransferase 1A9 (UGT1A9, Homo sapiens, UniProt O60656); inhibitor; HEK293 overexpressing UGT1A9, recombinant UGT1A9 microsomes; 100 µM, added: propofol glucuronidation; relative to: no-inhibitor control): 74%
O=S(=O)(O)CC1CSSCC(CS(=O)(=O)O)SS1 (stereo not shown)  inhibition (Response regulator PhoP; DNA binding; 100 µM): > 50%
Nc1ncc(/C=N/NC(=O)Cc2c[nH]c3ccccc23)cn1  inhibition (1-deoxy-D-xylulose-5-phosphate synthase; enzyme activity, inhibitor; 200 µM): 47%
CN1CC23C4C5CC5C5C4C4C2C2CC2C4C53C1 (stereo not shown)  inhibition (Matrix protein 2; enzyme activity, inhibitor; 100 µM, pH 5.5): 27%
Cc1ccc(S(=O)(=O)n2c(CN3C(=O)C(=O)c4ccccc43)cc3cc(C)cc(C)c32)cc1  inhibition (Rv1885c; enzyme activity, inhibitor; 30 µM): 71.6%
O=S(=O)(O)CCOCC1CSSCC(COCCS(=O)(=O)O)SS1 (stereo not shown)  inhibition (DNA-binding response regulator MtrA, C-terminal domain (mtrA, Mycobacterium tuberculosis, UniProt P9WGM7); DNA binding; 100 µM): > 50%
Cc1cc(CNC23CC4CC(CC(C4)C2)C3)sc1Br  inhibition (Matrix protein 2; ion current, two-electrode voltage clamp; 100 µM): 52%
O=C(N/N=C/c1ncc[nH]1)c1cccs1  inhibition (1-deoxy-D-xylulose-5-phosphate synthase; enzyme activity, inhibitor; 120 µM): 16%
Brc1csc(CNC23CC4CC(CC(C4)C2)C3)c1  inhibition (Matrix protein 2; ion current, two-electrode voltage clamp; 100 µM): 58%
CC(=N)N1CC23C4C5CC5C5C4C4C2C2CC2C4C53C1 (stereo not shown)  inhibition (Matrix protein 2; enzyme activity, inhibitor; 100 µM, pH 5.5): 20%
Cc1ccsc1CNC12CC3CC(CC(C3)C1)C2  inhibition (Matrix protein 2; ion current, two-electrode voltage clamp; 100 µM): 71%
O=C1c2ccccc2-c2c1c1c(O)cc(-c3ccccc3)cc1n2Cc1ccccc1  inhibition (Casein kinase II subunit alpha, with CK2 beta subunit (CSNK2A1, Homo sapiens, UniProt P68400); 10 µM): 48%
Ic1ccc(CNC23CC4CC(CC(C4)C2)C3)s1  inhibition (Matrix protein 2; ion current, two-electrode voltage clamp; 100 µM): 91%
CN1CC23C4CCC5C4C4C2CCC4C53C1  inhibition (Matrix protein 2; enzyme activity, inhibitor; 100 µM, pH 5.5): 4.1%
Cc1ccc(CNC23CC4CC(CC(C4)C2)C3)s1  inhibition (Matrix protein 2; ion current, two-electrode voltage clamp; 100 µM): 84%
CCCc1cn(-c2cccc(C(=O)N[C@H]3CCOC3=O)c2)nn1  inhibition (lasR; reporter gene, antagonist; 100 µM, added: OdDHL 10 nM): 29%
